# Assay results collected from several papers.
# Each line is one published result; not all experiments were run side by side. ± gives the spread as reported.
SMILES,assay,test system,setting,tissue uptake
Cc1cc(C)n(CCN(CCN)CCCCCCNC(=O)[C@@H](N)Cc2c[nH]c3ccccc23)n1.[99Tc+].[C-]#[O+].[C-]#[O+].[C-]#[O+],,"BALB/c nude mice A549 xenograft, tumor","intravenous, 4 h",0.56 ± 0.08 %ID/g
O=C(NCC1OC2CCC=CCCC2O1)c1ccc([18F])nc1 (stereo not drawn),,"female BALB/c nude mice, LS174T tumour, bone","intravenous, 60 min, with: CC49-tetrazine 24 h before",0.8 ± 0.4 %ID/g
N#C[C@@H]1CCCN1C(=O)CNC(=O)c1ccnc2ccc(OCCCN3CCN(C(=O)CCc4ccc5c(c4)CN4CCN6CC(=O)[O][68Ga-]([O]C(=O)C4)([O]5)[O]c4ccc(CCC(=O)N5CCN(CCCOc7ccc8nccc(C(=O)NCC(=O)N9CCC[C@H]9C#N)c8c7)CC5)cc4C6)CC3)cc12,,"BALB/c nude mice, U-87 MG xenograft, brain",1 h,0.08 ± 0.01 %ID/g
CCCC[C@H](NC(=O)CCCCCCCNC(=O)CN1CCN(CC(=O)O)CCN(CC(=O)O)CC1)C(=O)N[C@H]1CC(=O)NCCCC[C@@H](C(N)=O)NC(=O)[C@H](Cc2c[nH]c3ccccc23)NC(=O)[C@H](CCCNC(=N)N)NC(=O)[C@@H](Cc2ccccc2)NC(=O)[C@H](Cc2c[nH]cn2)NC1=O [fluorine-18 labelled],,"C57 mice B16-F10 melanoma, muscle","intravenous, 0.37 MBq, 1 h",0.01 ± 0.01 %ID/g
Cc1cc(C)n(CCN(CCN)CCCCCCNC(=O)[C@@H](N)Cc2c[nH]cn2)n1.[99Tc+].[C-]#[O+].[C-]#[O+].[C-]#[O+],,"BALB/c nude mice, A549 xenograft, liver","intravenous, 4 h",13.1 ± 1.33 %IA/g
COc1ccc(Nc2nc(Nc3ccc(OCCOCC[18F])cc3)ncc2Br)cc1,,"ICR mice, S180 tumour, intestine","intravenous, 370 kBq, 5 min",1.2 ± 0.07 %ID
O=C(NCC1OC2CCC=CCCC2O1)c1ccc(COCCOCCOCC[18F])cc1 (stereo not drawn),,"healthy female BALB/c nude mice, lungs","intravenous, 7.4 MBq per mouse, 30 min",2.4 ± 0.1 %ID/g
CCCC[C@H](NC(=O)COCCOCCNC(=O)CN1CCN(CC(=O)O)CCN(CC(=O)O)CC1)C(=O)N[C@H]1CC(=O)NCCCC[C@@H](C(N)=O)NC(=O)[C@H](Cc2c[nH]c3ccccc23)NC(=O)[C@H](CCCNC(=N)N)NC(=O)[C@@H](Cc2ccccc2)NC(=O)[C@H](Cc2c[nH]cn2)NC1=O [fluorine-18 labelled],,"C57 mice B16-F10 melanoma, bone","intravenous, 0.37 MBq, 2 h",3.56 ± 1.34 %ID/g
N#C[C@@H]1CCCN1C(=O)CNC(=O)c1ccnc2ccc(OCCCN3CCN(C(=O)CCc4ccc(O)c(CN5CCN6CC(=O)[O][Al-]([18F])([O]C(=O)C5)[O]c5ccc(CCC(=O)N7CCN(CCCOc8ccc9nccc(C(=O)NCC(=O)N%10CCC[C@H]%10C#N)c9c8)CC7)cc5C6)c4)CC3)cc12 (stereo partly drawn),,"BALB/c nude mice, U-87 MG xenograft, heart","1 h, blocking, with: DOTA-FAPI-04 40 nmol/mouse co-injected",2.03 ± 0.34 %ID/g
COc1ccc(Nc2nc(Nc3ccc(OCCOCCOCC[18F])cc3)ncc2Br)cc1,,"ICR mice, S180 tumour, stomach","intravenous, 370 kBq, 15 min",1.44 ± 0.06 %ID
O=C(O)CCCOc1ccc([18F])cc1-c1cc(-c2ccccc2C(F)(F)F)n(-c2ccccc2)n1,,"mice, small intestine","intravenous, 60 min",2.16 ± 0.23 %ID/g
CCCC[C@H](NC(=O)CNC(=O)CNC(=O)[C@H](CCCCNC(=O)[C@H](CC(=O)O)NC(=O)C(C)c1ccc(CC(C)C)cc1)NC(=O)CN1CCN(CC(=O)O)CCN(CC(=O)O)CCN(CC(=O)O)CC1)C(=O)N[C@H]1CC(=O)NCCCC[C@@H](C(N)=O)NC(=O)[C@H](Cc2c[nH]c3ccccc23)NC(=O)[C@H](CCCNC(=N)N)NC(=O)[C@@H](Cc2ccccc2)NC(=O)[C@H](Cc2c[nH]cn2)NC1=O (stereo partly drawn) [lutetium-177 labelled],,"C57 mice, tumour-bearing, stomach","intravenous, 0.037 MBq, 4 h",1.12 ± 0.59 %ID/g
O=C([O-])CN1CCN(CC(=O)[O-])CCN(CC(=O)NC[C@H]2CC[C@H](C(=O)N[C@H](Cc3cnc4ccccc4c3)C(=O)NCCCC[C@H](NC(=O)N[C@@H](CCC(=O)O)C(=O)O)C(=O)O)CC2)CCN(CC(=O)[O-])CC1.[64Cu+2],ex vivo gamma counting,"22Rv1 tumour-bearing mice, stomach","intravenous, 0.74 MBq, 2 h post-injection",9.92 %ID/g
CC(C)C[C@H](NC(=O)[C@@H](CCCCNC(=O)[C@@H](Cc1ccccc1)NC(=O)CCCCCCCNC(=O)CN1CCN(CC(=O)O)CCN(CC(=O)O)CCN(CC(=O)O)CC1)NC(=O)[C@H](Cc1ccc(O)cc1)NC(=O)[C@H](CO)NC(=O)[C@H](Cc1c[nH]c2ccccc12)NC(=O)[C@H](Cc1c[nH]cn1)NC(=O)[C@@H]1CCC(=O)N1)C(=O)N[C@@H](CCCNC(=N)N)C(=O)N1CCC[C@H]1C(=O)NCC(N)=O [indium-111 labelled],,"male athymic nude mice, DU-145 prostate cancer xenograft, muscle","intravenous, dose not given, 1 h, with: unlabeled blocking peptide 10 µg",0.15 ± 0.04 %ID/g
COc1ccc2c(c1)C(C)(C)C(/C=C/C1=C(Oc3ccc(C(=O)NCCCCOc4cc(CN(Cc5ccccn5)Cc5ccccn5)cc(CN(Cc5ccccn5)Cc5ccccn5)c4)cc3)C(=C/C=C3/N(CCCCS(=O)(=O)[O-])c4ccc(OC)cc4C3(C)C)CCC1)=[N+]2CCCCS(=O)(=O)[O-].O=[N+]([O-])[O-].O=[N+]([O-])[O-].[99Tc+].[C-]#[O+].[C-]#[O+].[C-]#[O+].[Zn+2],,"BALB/c mice, S. aureus myositis, bone",12 h post-injection,0.86 %ID/g

# Excerpt of the above:
SMILES,assay,test system,setting,tissue uptake
CCCC[C@H](NC(=O)COCCOCCNC(=O)CN1CCN(CC(=O)O)CCN(CC(=O)O)CC1)C(=O)N[C@H]1CC(=O)NCCCC[C@@H](C(N)=O)NC(=O)[C@H](Cc2c[nH]c3ccccc23)NC(=O)[C@H](CCCNC(=N)N)NC(=O)[C@@H](Cc2ccccc2)NC(=O)[C@H](Cc2c[nH]cn2)NC1=O [fluorine-18 labelled],,"C57 mice B16-F10 melanoma, bone","intravenous, 0.37 MBq, 2 h",3.56 ± 1.34 %ID/g
